Results of several laboratories.
Every numbered part comes from another study and shows a few of its results, in no order.
Sequence of UniProt Q6ZN16 (whole entry, looked up): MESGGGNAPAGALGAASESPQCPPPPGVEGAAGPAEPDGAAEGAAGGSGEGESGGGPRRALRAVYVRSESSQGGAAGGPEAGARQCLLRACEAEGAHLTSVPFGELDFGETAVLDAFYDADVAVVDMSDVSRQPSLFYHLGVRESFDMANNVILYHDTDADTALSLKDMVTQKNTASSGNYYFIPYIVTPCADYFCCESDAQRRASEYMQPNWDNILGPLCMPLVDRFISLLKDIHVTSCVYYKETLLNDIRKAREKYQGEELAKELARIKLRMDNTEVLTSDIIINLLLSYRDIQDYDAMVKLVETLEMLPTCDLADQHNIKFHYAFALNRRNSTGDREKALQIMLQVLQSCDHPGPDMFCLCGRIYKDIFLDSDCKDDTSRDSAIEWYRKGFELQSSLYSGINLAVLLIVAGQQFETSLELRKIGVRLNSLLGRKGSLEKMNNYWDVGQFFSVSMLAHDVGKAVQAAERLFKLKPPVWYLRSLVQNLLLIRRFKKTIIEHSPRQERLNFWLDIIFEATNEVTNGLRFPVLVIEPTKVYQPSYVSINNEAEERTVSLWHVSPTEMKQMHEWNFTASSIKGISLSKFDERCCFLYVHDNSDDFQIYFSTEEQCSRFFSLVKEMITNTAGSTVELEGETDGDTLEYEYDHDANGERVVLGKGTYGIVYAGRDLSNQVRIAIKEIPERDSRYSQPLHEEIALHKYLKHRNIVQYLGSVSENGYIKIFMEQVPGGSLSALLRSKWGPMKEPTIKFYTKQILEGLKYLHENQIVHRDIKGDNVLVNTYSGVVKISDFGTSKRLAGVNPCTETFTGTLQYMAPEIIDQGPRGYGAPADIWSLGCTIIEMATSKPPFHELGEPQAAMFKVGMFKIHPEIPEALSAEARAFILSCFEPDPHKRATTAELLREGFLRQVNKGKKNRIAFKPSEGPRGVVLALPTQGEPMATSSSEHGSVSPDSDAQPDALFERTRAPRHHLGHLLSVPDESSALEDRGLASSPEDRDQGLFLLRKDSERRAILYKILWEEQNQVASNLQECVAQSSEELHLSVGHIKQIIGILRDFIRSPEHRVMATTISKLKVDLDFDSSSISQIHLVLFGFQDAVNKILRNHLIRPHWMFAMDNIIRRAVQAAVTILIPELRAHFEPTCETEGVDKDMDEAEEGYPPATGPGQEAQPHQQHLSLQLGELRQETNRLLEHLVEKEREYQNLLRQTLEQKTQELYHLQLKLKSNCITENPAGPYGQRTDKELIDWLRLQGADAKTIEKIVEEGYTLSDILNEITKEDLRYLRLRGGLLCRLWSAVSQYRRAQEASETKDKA
Sequence of UniProt Q13873 (whole entry, looked up): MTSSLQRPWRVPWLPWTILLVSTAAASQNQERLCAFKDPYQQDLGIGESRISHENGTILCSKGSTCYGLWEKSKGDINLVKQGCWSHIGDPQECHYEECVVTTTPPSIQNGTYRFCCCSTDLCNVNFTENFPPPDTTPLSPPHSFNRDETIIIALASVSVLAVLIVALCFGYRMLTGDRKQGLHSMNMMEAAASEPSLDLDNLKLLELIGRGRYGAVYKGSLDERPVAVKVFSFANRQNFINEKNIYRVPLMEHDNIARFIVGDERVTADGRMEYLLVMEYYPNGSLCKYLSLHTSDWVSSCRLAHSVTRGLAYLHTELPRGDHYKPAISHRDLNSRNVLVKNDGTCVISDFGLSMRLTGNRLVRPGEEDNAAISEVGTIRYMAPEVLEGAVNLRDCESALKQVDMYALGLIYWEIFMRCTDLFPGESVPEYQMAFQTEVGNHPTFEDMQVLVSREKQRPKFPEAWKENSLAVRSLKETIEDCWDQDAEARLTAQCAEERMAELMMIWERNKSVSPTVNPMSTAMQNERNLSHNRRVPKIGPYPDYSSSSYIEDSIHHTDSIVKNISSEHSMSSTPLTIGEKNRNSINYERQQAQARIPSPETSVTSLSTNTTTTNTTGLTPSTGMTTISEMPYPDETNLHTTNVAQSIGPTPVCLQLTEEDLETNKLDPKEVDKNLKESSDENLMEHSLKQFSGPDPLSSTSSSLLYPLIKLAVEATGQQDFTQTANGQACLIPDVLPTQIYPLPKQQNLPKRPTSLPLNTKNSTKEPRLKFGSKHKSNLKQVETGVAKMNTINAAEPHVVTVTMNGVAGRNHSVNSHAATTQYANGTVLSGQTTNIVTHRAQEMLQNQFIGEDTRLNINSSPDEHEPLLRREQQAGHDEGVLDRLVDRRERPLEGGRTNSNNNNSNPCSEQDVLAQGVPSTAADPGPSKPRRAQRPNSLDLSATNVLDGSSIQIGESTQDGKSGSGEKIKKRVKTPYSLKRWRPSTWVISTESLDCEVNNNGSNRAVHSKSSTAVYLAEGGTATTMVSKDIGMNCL
Sequence of UniProt O75716 (whole entry, looked up): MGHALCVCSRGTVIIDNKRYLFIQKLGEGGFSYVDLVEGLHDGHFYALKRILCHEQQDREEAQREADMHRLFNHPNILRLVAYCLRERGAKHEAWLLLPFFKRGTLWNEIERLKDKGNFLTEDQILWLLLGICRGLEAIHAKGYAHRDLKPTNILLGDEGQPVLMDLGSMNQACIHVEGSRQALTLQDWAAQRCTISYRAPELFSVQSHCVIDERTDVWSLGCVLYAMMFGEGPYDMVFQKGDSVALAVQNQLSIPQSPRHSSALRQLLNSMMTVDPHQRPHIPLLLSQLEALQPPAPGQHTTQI
Sequence of UniProt Q99759 (whole entry, looked up): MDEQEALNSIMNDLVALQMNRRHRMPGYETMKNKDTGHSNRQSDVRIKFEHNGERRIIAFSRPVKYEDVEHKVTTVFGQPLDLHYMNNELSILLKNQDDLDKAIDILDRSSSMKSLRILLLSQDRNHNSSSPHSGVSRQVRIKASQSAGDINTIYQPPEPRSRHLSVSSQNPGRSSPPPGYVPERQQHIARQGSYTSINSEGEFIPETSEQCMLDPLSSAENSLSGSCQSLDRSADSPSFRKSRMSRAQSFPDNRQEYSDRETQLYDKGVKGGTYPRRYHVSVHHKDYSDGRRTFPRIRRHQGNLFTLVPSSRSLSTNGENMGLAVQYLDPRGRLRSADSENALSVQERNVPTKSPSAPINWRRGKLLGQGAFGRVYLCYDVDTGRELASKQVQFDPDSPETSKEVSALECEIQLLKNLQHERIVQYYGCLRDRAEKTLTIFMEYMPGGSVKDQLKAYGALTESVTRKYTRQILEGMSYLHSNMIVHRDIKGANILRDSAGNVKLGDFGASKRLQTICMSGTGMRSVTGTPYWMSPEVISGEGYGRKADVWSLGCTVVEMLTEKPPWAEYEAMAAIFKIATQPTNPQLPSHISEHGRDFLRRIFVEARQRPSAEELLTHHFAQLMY
Sequence of UniProt Q6P3R8 (whole entry, looked up): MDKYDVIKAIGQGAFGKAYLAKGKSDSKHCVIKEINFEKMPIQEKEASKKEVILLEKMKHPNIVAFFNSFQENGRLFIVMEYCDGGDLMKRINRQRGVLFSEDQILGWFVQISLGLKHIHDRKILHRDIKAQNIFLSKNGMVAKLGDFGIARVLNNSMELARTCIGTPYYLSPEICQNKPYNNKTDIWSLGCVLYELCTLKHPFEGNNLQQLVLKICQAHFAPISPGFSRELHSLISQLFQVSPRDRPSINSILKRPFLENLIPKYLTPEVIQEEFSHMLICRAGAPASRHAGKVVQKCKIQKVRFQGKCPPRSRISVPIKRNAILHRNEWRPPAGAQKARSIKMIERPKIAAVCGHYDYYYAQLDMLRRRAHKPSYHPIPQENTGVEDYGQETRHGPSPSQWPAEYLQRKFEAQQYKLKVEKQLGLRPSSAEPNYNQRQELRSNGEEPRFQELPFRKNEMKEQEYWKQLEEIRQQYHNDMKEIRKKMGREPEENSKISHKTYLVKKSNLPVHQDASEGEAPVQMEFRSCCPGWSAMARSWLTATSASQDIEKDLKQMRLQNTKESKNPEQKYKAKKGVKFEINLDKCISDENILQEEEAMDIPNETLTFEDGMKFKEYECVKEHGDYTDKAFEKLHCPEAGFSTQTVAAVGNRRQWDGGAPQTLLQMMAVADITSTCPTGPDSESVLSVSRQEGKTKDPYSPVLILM

Series 1 — effect on: cell-free assay; technique: competition with immobilised ligand; tested at: 1 µM
SMILES: CC1=C(C#N)[C@@H](c2ccc3[nH]nc(C)c3c2)C(C#N)=C(c2ccc(Cl)cc2)N1
| target | remaining binding [%] |
| --- | --- |
| Proto-oncogene tyrosine-protein kinase Src (SRC, Homo sapiens, UniProt P12931) | 100 |
| Mitogen-activated protein kinase kinase kinase 3 (MAP3K3, Homo sapiens, UniProt Q99759) | 100 |
| Serine/threonine-protein kinase Nek5 (NEK5, Homo sapiens, UniProt Q6P3R8) | 80.3 |
| Receptor-type tyrosine-protein kinase FLT3, autoinhibited (FLT3, Homo sapiens, UniProt P36888) | 100 |
| Mitogen-activated protein kinase kinase kinase 15 (MAP3K15, Homo sapiens, UniProt Q6ZN16) | 100 |
| Serine/threonine-protein kinase 16 (STK16, Homo sapiens, UniProt O75716) | 100 |
| Bone morphogenetic protein receptor type-2 (BMPR2, Homo sapiens, UniProt Q13873) | 100 |

Series 2 — technique: RNA Bind-n-Seq; form: RNA; sample: in vitro; tested at: 20 nM; notes: 6-mer, flanks averaged, single round; together with: 150 mM LiCl; relative to: input library; reading: higher = stronger binding
Target: TAR DNA-binding protein 43, full length, His tag (TARDBP, Homo sapiens, UniProt Q13148, residues 1-414)
| Sequence | 6-mer enrichment (R) |
| --- | --- |
| CUCUUG | 0.942 |
| CGCAAU | 0.881 |
| GAAAAG | 0.921 |
| AACGAC | 0.751 |
| CGCGGC | 0.977 |
| GUGUCU | 1.14 |
| GCUAAC | 0.854 |
| UCGUUA | 0.893 |

Series 3 — effect on: enzyme activity; mode: inhibitor; tested at: 0.5 µM; relative to: control
Target: Lymphokine-activated killer T-cell-originated protein kinase (PBK, Homo sapiens, UniProt Q96KB5)
Residues (Q96KB5 1-322): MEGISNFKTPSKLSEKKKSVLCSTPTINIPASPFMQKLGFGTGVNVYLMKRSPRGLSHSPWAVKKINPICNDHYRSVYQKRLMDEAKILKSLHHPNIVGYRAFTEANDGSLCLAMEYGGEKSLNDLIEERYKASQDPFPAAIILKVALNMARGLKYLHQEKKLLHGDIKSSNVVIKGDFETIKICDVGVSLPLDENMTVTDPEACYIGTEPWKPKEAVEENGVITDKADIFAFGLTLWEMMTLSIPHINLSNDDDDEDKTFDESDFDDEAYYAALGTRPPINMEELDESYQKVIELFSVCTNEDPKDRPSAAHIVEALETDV
| SMILES | remaining activity [%] |
| --- | --- |
| O=C1NC(=O)C(c2cn(CCCn3ccnc3)c3ccccc23)=C1Nc1ccccc1 | 104 |
| Cc1nc(-c2ccccc2)c(-c2ccncc2)o1 | 110 |
| NCCNc1ncc(C(N)=O)c(Nc2cccc(C(F)(F)F)c2)n1 | 66.4 |
| O=C1NC(=O)C(c2cn(CCCO)c3ncccc23)=C1c1cnccn1 | 94.9 |
| Oc1ccc(-c2nc(-c3ccncc3)c(-c3ccc(F)cc3)[nH]2)cc1 | 100 |
| O=c1c2ccccc2[nH]c(=S)n1CCN1CCC(=C(c2ccc(F)cc2)c2ccc(F)cc2)CC1 | 107 |
| COc1ccc(C(=O)Nc2sc3c(c2C(N)=O)CCCC3)cc1OC | 103 |
| COc1cc2ncnc(Nc3ccc(Oc4ccccc4)cc3)c2cc1OC | 92.6 |
| COc1cc2ncnc(Nc3ccc(F)c(Cl)c3)c2cc1OCCCN1CCOCC1 | 102 |
| CC(C)[C@H](CO)Nc1nc(Nc2cc(N)cc(Cl)c2)c2ncn(C(C)C)c2n1 | 75.6 |
| O=C(Nc1cccc(Nc2cc(Nc3cccc(C(F)(F)F)c3)ncn2)c1)C1CC1 | 103 |
| CN(C)c1ccc(C=C2C(=O)Nc3ccccc32)cc1 | 101 |
| Cc1cccc(-c2[nH]c(C(C)(C)C)nc2-c2ccc3c(c2)OCO3)n1 | 103 |
| O=S(=O)(c1cccc2cnccc12)N1CCCNCC1 | 100 |
| CNC(=O)c1cc(Oc2ccc(NC(=O)Nc3ccc(Cl)c(C(F)(F)F)c3)cc2)ccn1 | 97.5 |
| O=C(O)c1ccc2c3c1cccc3c(=O)n1c3ccccc3nc21 | 97.5 |

Single results of other studies
| Compound | test | test system | setting | quantity | result |
| --- | --- | --- | --- | --- | --- |
| CC(C)n1cnc(-c2ccc(F)cc2)c1-c1ncc(C(=O)Nc2ccc(N3CCN(C)CC3)cc2)[nH]1 | phase 2a trial | idiopathic pulmonary fibrosis patients | dose not given, adverse event grade 5, all dose arms pooled | patients with coagulopathy | 0% |
| CNC(=O)c1ccc(-c2cnn3ccc(C(=O)N(CC(=O)O)c4ccc(Cl)cc4)cc23)cc1 | – | C57BL/6 IFN-γ knockout mouse, female, plasma | oral, 10 mg/kg, 4 h | plasma concentration | 0.011 µM |
